Assay results pooled from the literature.
Each numbered part is a random draw from the data of one study; scales do not carry over between parts. Positions count from the first letter of the parent shown.

Block 1 — target: CCNB3, cyclin fold, Cln2 fusion (human); technique: yeast growth competition, sequencing; sample: yeast; notes: strong parent motif; relative to: not given; direction: higher = stronger binding
Starting sequence: RBL2 docking peptide (human); STTRRRLFVENDS; partner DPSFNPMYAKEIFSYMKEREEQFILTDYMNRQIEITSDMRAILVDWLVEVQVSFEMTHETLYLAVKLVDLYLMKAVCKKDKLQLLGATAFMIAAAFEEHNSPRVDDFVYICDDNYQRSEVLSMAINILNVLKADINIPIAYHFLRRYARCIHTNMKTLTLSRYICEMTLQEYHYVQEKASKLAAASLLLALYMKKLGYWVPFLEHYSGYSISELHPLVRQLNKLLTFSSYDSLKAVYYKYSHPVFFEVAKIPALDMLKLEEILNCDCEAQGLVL
| Variant | normalised enrichment score |
| --- | --- |
| STVRRRLFVENDS [T3V] | 3.08 |
| STTRRRWFVENDS [L7W] | 0.0391 |
| STTRRRLFVENDD [S13D] | 1.15 |
| CTTRRRLFVENDS [S1C] | 1.68 |
| STTRRRLFVENDQ [S13Q] | 0.595 |
| STTRRELFVENDS [R6E] | 0.297 |
| STKRRRLFVENDS [T3K] | -0.0387 |
| STTRRRLFVMNDS [E10M] | 0.965 |
| MTTRRRLFVENDS [S1M] | 0.663 |
| STTRRRLNVENDS [F8N] | 0.275 |
| NTTRRRLFVENDS [S1N] | 1.12 |
| STTRRRLFVHNDS [E10H] | 0.395 |
| STTWRRLFVENDS [R4W] | 0.582 |
| STTRKRLLVENDS [R5K F8L] | -0.0737 |
| STTRRRLFVFNDS [E10F] | 0.655 |
| STTRRRLFVESDS [N11S] | 0.952 |

Block 2 — technique: aptamer microarray, sandwich; molecule type: DNA with 2'F-ANA; sample: in vitro; tested at: 200 nM; added: Cy3 exosite-II aptamer, 400 nM; direction: higher = stronger binding; strand: GGTTGGTGTGGTTGG
Target: Prothrombin, mature alpha-thrombin (F2, Homo sapiens, UniProt P00734)
Notes: whole 15-mer aptamer, many near background
| Modification | mean fluorescence intensity [a.u.] |
| --- | --- |
| 2'F-ANA at 1 3 5 10 11 13 14 15 | 48.8 |
| 2'F-ANA at 4 8 9 14 15 | 88.9 |
| 2'F-ANA at 1 3 4 5 7 9 11 13 | 51.1 |
| 2'F-ANA at 2 4 6 7 12 14 15 | 135 |
| 2'F-ANA at 1 3 9 14 | 101 |
| 2'F-ANA at 1 3 6 8 10 12 13 14 15 | 65.3 |
| 2'F-ANA at 2 5 6 7 9 11 13 | 60 |
| 2'F-ANA at 1 3 7 8 9 12 13 | 498 |
| 2'F-ANA at 4 5 10 11 12 13 14 | 45.5 |
| 2'F-ANA at 1 3 4 5 6 8 11 12 | 103 |
| 2'F-ANA at 3 5 6 10 11 13 | 53.1 |
| 2'F-ANA at 1 3 4 6 7 10 11 13 14 | 53.5 |
| 2'F-ANA at 1 2 4 9 11 12 14 15 | 51.3 |
| 2'F-ANA at 1 4 6 12 13 14 | 53.4 |
| 2'F-ANA at 1 6 7 8 9 10 11 12 15 | 69.4 |
| 2'F-ANA at 2 3 5 6 7 8 10 11 12 15 | 59.9 |
| 2'F-ANA at 1 2 7 10 13 15 | 51.2 |
| 2'F-ANA at 1 6 8 12 13 14 | 73.1 |
| 2'F-ANA at 2 5 6 7 10 12 14 | 43.9 |
| 2'F-ANA at 2 5 6 7 9 11 12 14 15 | 94.5 |

Block 3 — technique: universal PBM; molecule type: double-stranded DNA, one strand shown; sample: in vitro; tested at: 600 nM; direction: higher = stronger binding
Target: Sal-like protein 4, full length isoform A (SALL4, Homo sapiens, UniProt Q9UJQ4, residues 1-1053)
UniProt Q9UJQ4, sequence (whole entry, looked up): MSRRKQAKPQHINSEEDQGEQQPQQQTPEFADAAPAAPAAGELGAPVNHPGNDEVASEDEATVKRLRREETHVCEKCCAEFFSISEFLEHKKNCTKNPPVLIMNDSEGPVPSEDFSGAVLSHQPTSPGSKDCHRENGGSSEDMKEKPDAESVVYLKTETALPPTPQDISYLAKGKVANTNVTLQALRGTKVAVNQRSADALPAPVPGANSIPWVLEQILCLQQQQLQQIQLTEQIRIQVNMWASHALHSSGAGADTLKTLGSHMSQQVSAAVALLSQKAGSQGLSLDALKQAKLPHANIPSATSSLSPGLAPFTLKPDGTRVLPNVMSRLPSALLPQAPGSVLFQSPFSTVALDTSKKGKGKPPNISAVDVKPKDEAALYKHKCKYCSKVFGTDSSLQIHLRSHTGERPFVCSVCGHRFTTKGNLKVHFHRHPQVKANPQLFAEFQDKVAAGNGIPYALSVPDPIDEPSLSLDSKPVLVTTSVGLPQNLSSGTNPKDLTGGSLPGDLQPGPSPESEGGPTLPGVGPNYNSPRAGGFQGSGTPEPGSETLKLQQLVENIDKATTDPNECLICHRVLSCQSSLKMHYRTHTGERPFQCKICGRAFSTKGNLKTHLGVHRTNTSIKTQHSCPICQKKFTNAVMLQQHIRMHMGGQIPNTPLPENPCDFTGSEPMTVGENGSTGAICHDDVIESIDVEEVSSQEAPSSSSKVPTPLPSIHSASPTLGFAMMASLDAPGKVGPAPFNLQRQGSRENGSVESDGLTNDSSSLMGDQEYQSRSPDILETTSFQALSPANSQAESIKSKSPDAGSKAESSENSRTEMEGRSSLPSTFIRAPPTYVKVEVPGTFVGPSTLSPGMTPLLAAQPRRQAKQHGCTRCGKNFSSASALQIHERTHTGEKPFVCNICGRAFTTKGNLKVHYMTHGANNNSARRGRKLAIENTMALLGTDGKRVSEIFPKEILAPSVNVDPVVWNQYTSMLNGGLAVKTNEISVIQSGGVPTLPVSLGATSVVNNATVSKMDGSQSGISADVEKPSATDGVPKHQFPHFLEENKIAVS
Notes: 8-mer, flanks averaged, mean of replicates
| Strand | E-score |
| --- | --- |
| GAGCGGAA | -0.0634 |
| CGGGCCAG | -0.32 |
| GGATTCGA | -0.154 |
| TAACTGTA | 0.251 |
| CAGGCAGG | -0.181 |
| ACGTGCTG | -0.105 |
| GAATCCAA | -0.0135 |
| AACGGCCT | -0.224 |
| CCAGCGTC | -0.367 |
| ACGCCGAT | -0.176 |
| AGAGCGTG | -0.165 |
| ATTATGCC | 0.272 |
| GCCTAAGA | -0.142 |
| ACAAATTA | 0.32 |
| ACGACCTA | -0.0138 |
| AACACACG | 0.0152 |
| CACTCAGG | -0.184 |
| CGAGGTCA | -0.196 |
| CAAGCGGA | -0.199 |
| CACACAAC | 0.0371 |
| CCATCTGA | 0.00354 |
| CCGCTAGC | -0.34 |

Block 4 — technique: protein-binding microarray; molecule type: double-stranded DNA, one strand shown; sample: in vitro; tested at: 250 nM; notes: 60-bp whole probe; added: salmon DNA 0.4 mg/ml; relative to: random background probes; direction: higher = stronger binding; constant ends, left off below: GCCTAGCAC … GTCTTGATTCGCTTGACGCTGCTG
Target: Interferon regulatory factor 7, full length, phosphomimetic (IRF7, Homo sapiens, UniProt Q92985, residues 1-503, S101K/S471D/S472D/S475D/S476D/S477D/S483D/S484D/S487D)
Target sequence (chain): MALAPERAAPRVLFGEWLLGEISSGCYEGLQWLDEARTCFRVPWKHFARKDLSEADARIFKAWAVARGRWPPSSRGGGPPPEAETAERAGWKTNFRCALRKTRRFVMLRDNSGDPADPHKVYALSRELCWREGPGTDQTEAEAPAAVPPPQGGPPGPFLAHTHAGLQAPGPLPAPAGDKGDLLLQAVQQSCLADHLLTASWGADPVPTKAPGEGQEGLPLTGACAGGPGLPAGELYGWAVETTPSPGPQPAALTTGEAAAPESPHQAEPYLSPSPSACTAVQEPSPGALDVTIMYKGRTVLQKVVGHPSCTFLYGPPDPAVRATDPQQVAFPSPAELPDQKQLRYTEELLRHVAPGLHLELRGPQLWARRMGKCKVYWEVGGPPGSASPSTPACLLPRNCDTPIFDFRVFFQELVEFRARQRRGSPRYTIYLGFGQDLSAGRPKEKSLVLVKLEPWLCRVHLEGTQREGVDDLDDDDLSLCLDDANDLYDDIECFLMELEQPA
| Strand | log fluorescence |
| --- | --- |
| GACGATTTCGGGAGTGGAGACGTGCTA | -0.211 z-score |
| CTGTTTTTGCTTTCCTTCTTGTGCTAG | 3.07 z-score |
| GACGAACTCAGACTGGAGACGTGCTAG | -0.216 z-score |
| TCAATCTTCAAGACTCATACTGTGCTA | 0.316 z-score |
| CTCCTTCAGTATCCTTAGATGTGCTAG | 0.39 z-score |
| GACGAACTGAGACTGGAGACGTGCTAG | -0.034 z-score |
| TTAGATTCCATTTTCGATTAGTGCTAG | 6.27 z-score |
| TCAGGGCTACCTCTCTTACTGTGCTAG | -1.09 z-score |
| GACGGTTTCGCTATCGGGACGTGCTAG | 8.58 z-score |
| GACGGTATCGACTATCAGGACGTGCTA | -0.474 z-score |
| GACGAACCGAGTTTCGAGACGTGCTAG | 4.32 z-score |
| GACGAACTGAGTCTCGAGAAGTGCTAG | 0.161 z-score |
| GACGGTATCGACTTTCGGGGCGTGCTA | 0.747 z-score |
| CACGGTATCGGGTATCGGGACGTGCTA | 0.621 z-score |
| TTACATCTCAGTTTCGATTAGTGCTAG | 8.41 z-score |
| GATGGACTGCTTATCCTGACGTGCTAG | -0.246 z-score |
| TGAGATTTCGGGACTGGATTAGTGCTA | 0.0312 z-score |
| TTAGGTCTCCTTATCCTTTCGTGCTAG | 0.422 z-score |
| GACGAACTGGGGACTGGAGACGTGCTA | -0.503 z-score |
| TCAGCTTTCTCTTTCACACTGTGCTAG | 0.649 z-score |
| TCACTATTATATATATCACTGTGCTAG | 0.346 z-score |
| TTAGATTTCGGGACTGCATTAGTGCTA | 0.657 z-score |
| TTTTTGTTGTTTTTTGGTTTGTGCTAG | 1.67 z-score |
| GACGGTTTCGGGTATCGGTACGTGCTA | 7.48 z-score |
| CTCTTCTTTTTTTTCTTTAAGTGCTAG | 1.89 z-score |

Block 5 — technique: RNA Bind-n-Seq; molecule type: RNA; sample: in vitro; tested at: not given; relative to: input RNA pool; direction: higher = stronger binding
Target: RING finger protein unkempt homolog, zinc fingers 1-6, GST-SBP tag (UNK, Homo sapiens, UniProt Q9C0B0, residues 30-357)
Notes: RNA with constant flanks, human-mouse chimeric sites, ends assumed
Construct (chain): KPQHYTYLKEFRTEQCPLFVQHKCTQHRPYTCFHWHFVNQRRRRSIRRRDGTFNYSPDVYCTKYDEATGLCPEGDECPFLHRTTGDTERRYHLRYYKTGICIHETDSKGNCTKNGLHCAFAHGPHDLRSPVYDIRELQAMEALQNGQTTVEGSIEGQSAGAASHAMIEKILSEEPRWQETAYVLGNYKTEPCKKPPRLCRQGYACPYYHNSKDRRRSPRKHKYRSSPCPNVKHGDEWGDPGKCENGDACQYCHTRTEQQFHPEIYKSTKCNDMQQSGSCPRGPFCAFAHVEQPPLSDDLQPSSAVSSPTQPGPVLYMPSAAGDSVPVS
| Strand | bound/input enrichment |
| --- | --- |
| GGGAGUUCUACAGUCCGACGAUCAAUUUCCUGUCAUACUUUUUAGACAUUCACAUCAGACUUACAGAGCACCUGGCCACAUUCUAGGUUUGAAUUAUUUCUCAGCUAUGGAUAUGAUCAAAGAGUGAAAAUGCUUAACUAAUGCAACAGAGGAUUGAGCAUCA | 0.513 ratio |
| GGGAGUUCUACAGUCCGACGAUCUGUAGUUUCGCGGUUCAAGGUUUUGUGGUAGUUCACUUACGGUAUUAAAUUAUUAUUCUGCUUAGCUUAUAAUAAGGAUAAUUGCAUUUAAAGAGGUUACUGAAUGUUACUCUGAAACUUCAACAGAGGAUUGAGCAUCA | 0.382 ratio |
| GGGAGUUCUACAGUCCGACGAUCCACACCCUCUUCUGCGGGACCCUCAUCUUGCAGGCCCGGGCCUAUGUGGGACCGCACGUCCUGGCAGUGGUGACUCGCACAGGGUUCUGCACGGCAAAAGGGGGCCUGGUGAGCUCCAUCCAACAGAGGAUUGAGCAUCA | 0.0866 ratio |
| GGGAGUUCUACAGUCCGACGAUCACAGUUAUAUUGUUGAGUUUCAUUUUCUUGUAUGUUUGUAGUGUCUGCUUGCCUGUGUCUUUUAGUAAAAUAAAAUAAGCCUUUGAAAAUAUUUUAGCAUGGUAUUUAACAUUUUCUAAACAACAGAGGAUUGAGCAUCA | 2.72 ratio |
| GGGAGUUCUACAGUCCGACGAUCGUUGCCAGCUUCCGGUUCCGUUGGGCUCGGUUCUCUCCUGAGCUACGUGUCUCUACGCUCUCAAUCCGCCAUCCAACGGCAGUCAUGCAGGUAAUGCAGUUUGUGGAUGAGCCAAGUCAGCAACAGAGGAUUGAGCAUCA | 0.0478 ratio |
| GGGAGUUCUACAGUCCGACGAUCACACAAUAUGAGACCAACAGCAUGGACUUCAAAGUCGGGGCAGAUGGGACAGUCUUCGCCACCCGGGAGCUGCAGGUCCCCUCCGAGCAGGUGGCGUUCACGGUGACUGCGCGGGAAAGCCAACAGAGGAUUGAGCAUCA | 0.258 ratio |
| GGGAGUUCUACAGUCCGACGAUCCGCUGGCCCAAGCUGAUGGACUCUGAUGGCCUCCAUCUCUCAGGCACGUGUGCCUUCUCUUAGUCCCUGUUUUCGGGUCACAAAGCUUCUCAGUACUGUGGUUUGAAAGCACCAGCUUUGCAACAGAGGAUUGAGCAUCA | 0.109 ratio |
| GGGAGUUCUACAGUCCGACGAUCAAAGAGAAACUAAAGCAAACUGAUUGAAAGAGGAUUGGCAAAGAGAAUUUCAUAGAGAAACUAGGAUUUAUUAGCAAACAUGAGUUAUAUUCCAGAGCGUCUCAGAAAACCCCAGCCAACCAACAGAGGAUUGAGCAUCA | 3.77 ratio |
| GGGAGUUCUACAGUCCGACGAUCAAAUCGUGUGUGUCCAAUAUUGAAAGUGCUUUAUCUACACUCCAGUAUGUAAGCAGCAUAGUAGUUUCUUUAGAGAAUAGGUCAGCCAUUGUAAAGUACAAUGCAAGCUUAGUCACUCCACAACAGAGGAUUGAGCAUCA | 11.6 ratio |
| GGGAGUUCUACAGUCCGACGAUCACCAUUUCUGAAUACACGGCUUUGUGUGUAGUUCACUCUAUGUAUUAAAUUAUUAUUCUGCUUAGCUUAUAAUAAGGAUAAUUGCAUUUAAAGAGGUUACUGAAUGUUACUCUGAAACUUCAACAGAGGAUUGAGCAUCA | 0.349 ratio |
| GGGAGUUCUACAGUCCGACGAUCGUUCGACUCUGGGAUCAUGCCACAAUGACAGAAGUGAAAUCUCUGAAUUUUAAUAUGUCUGUUAGCAGUAUGGAAUAUAUUCCUGAAGGAGAGAUUUUGGUUAUUACUUAUGGACGAUCUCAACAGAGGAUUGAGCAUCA | 0.64 ratio |

Some of these lines once more (block 3):
| Strand | E-score |
| --- | --- |
| CAGGCAGG | -0.181 |
| ACAAATTA | 0.32 |
| CGAGGTCA | -0.196 |
| CACTCAGG | -0.184 |
| AACACACG | 0.0152 |
| CCGCTAGC | -0.34 |
| AGAGCGTG | -0.165 |
| ACGTGCTG | -0.105 |
